Assay results gathered from unrelated publications.
Each numbered part is a random draw from the data of one study; scales do not carry over between parts.
UniProt P54764, sequence (whole entry, looked up): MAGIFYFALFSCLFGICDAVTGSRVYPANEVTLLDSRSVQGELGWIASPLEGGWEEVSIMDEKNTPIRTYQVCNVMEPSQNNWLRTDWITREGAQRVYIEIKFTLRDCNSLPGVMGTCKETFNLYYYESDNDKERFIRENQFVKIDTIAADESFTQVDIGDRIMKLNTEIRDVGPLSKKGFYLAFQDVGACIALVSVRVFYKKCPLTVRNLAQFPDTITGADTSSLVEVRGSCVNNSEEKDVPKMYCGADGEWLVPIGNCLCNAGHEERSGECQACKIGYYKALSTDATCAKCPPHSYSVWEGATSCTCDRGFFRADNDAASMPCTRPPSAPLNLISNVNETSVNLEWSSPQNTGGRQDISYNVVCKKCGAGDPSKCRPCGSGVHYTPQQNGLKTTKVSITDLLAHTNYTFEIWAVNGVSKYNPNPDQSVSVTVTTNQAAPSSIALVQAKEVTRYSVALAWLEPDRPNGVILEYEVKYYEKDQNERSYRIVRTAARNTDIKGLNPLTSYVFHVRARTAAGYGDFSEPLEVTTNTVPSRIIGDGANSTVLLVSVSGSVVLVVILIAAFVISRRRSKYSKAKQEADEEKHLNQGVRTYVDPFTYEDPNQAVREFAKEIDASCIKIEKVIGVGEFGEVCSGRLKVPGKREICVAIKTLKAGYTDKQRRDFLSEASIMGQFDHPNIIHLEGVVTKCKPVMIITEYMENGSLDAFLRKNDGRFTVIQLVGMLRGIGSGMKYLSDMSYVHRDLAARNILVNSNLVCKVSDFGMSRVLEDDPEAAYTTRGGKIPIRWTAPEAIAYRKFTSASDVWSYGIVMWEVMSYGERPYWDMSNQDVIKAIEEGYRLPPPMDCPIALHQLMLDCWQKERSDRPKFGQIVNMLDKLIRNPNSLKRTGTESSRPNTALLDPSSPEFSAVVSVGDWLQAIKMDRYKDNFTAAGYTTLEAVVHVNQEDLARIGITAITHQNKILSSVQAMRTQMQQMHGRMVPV
UniProt Q52WX2, sequence (whole entry, looked up): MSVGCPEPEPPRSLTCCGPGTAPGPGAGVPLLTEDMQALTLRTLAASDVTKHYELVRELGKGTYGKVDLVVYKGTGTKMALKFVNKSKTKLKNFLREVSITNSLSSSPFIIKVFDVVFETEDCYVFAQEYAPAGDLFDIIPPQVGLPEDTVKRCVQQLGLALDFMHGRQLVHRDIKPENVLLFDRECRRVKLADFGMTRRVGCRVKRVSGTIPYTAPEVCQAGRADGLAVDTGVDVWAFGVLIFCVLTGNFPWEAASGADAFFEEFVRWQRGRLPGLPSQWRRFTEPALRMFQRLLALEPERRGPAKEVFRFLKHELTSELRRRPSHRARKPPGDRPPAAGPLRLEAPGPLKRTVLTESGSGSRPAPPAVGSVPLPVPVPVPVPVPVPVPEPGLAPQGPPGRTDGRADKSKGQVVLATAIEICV
UniProt O60307, sequence (whole entry, looked up): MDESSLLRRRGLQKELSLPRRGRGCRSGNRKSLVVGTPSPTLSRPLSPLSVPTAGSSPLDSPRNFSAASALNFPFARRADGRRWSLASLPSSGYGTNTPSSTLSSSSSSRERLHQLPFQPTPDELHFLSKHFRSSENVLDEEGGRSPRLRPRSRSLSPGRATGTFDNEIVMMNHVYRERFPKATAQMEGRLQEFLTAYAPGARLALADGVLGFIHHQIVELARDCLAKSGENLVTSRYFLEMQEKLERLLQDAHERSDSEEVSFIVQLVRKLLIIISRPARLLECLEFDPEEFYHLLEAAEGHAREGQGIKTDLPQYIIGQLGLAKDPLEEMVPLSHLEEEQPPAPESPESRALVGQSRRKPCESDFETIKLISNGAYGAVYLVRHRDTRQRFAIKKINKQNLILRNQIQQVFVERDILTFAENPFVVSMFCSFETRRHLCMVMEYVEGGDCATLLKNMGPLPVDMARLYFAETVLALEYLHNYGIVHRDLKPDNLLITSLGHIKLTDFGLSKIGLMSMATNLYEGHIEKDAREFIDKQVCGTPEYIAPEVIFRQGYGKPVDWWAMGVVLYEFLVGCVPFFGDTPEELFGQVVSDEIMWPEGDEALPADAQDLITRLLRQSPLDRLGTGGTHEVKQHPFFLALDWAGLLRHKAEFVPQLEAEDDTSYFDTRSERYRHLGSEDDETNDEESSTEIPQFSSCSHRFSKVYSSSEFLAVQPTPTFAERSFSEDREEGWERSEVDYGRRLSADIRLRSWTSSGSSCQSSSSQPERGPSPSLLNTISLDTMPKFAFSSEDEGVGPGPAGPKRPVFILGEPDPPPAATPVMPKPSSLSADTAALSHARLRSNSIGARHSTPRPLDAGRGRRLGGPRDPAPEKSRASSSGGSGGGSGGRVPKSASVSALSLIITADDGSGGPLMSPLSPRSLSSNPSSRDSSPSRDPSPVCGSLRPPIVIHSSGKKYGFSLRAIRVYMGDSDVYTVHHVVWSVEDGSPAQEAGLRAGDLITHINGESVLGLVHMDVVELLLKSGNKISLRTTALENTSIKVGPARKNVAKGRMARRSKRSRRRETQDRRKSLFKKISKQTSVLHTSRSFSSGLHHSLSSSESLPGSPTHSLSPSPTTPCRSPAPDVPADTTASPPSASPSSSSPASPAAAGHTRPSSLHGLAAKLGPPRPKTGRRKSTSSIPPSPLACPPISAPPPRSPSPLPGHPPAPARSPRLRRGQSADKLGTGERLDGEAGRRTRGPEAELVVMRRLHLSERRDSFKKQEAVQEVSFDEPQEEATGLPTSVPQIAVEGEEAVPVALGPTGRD
UniProt Q15746, sequence (whole entry, looked up): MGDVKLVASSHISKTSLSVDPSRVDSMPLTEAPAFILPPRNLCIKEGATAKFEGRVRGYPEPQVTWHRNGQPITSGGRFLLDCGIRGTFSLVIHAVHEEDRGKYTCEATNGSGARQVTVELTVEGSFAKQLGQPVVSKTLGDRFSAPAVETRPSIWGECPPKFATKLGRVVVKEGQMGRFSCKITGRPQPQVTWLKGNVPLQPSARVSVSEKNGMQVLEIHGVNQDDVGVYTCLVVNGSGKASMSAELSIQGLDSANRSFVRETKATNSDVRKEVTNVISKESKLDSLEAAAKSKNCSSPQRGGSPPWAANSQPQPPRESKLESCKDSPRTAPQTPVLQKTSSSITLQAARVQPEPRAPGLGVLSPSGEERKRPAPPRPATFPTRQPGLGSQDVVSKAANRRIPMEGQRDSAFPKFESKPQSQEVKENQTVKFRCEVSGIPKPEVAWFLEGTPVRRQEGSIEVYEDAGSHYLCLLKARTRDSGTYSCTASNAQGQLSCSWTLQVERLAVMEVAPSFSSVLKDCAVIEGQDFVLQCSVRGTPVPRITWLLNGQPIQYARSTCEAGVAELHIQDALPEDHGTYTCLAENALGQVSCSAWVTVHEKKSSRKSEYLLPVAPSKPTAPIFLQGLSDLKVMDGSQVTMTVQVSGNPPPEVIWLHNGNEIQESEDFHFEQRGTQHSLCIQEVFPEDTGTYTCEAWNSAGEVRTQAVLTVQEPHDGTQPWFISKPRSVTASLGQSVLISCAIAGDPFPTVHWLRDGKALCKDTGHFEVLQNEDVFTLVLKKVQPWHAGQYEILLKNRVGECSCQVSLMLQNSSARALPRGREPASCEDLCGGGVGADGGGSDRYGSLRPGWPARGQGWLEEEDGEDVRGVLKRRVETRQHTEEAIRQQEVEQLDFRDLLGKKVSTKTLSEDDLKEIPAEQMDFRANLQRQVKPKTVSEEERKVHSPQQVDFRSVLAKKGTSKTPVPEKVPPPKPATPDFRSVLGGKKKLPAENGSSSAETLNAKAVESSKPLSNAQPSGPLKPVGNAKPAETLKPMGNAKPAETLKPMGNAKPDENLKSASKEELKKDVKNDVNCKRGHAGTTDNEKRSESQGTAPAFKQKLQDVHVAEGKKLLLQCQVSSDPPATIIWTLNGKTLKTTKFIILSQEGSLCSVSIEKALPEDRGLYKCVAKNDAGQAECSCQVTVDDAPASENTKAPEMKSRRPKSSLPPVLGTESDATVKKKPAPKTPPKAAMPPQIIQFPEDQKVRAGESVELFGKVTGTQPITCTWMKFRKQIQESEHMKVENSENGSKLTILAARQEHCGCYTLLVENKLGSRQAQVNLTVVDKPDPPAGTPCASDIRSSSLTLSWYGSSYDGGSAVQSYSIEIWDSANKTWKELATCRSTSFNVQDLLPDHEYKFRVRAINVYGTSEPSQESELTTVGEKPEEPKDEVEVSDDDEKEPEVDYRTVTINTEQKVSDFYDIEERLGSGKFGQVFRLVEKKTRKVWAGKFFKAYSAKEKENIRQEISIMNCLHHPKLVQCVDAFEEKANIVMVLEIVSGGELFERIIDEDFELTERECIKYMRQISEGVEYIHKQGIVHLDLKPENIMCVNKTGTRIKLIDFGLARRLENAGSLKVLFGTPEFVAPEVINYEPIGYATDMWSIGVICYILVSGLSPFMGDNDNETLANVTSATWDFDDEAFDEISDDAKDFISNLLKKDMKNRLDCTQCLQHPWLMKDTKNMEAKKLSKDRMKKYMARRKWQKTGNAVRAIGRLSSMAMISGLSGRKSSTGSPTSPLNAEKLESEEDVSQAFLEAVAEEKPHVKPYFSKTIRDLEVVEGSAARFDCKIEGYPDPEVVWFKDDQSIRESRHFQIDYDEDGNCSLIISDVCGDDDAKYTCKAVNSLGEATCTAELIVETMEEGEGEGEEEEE
UniProt Q96PN8, sequence (whole entry, looked up): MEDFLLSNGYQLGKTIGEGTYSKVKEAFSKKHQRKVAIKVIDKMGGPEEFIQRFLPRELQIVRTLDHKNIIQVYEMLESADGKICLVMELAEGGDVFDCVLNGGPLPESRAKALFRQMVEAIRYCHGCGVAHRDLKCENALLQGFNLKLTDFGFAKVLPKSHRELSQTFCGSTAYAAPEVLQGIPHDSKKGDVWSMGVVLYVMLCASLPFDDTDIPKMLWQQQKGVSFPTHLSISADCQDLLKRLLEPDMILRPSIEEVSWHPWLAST

Block 1 — observed: enzyme activity; tested at: 10 µM
SMILES: Cc1sc(C(=O)NC2COC2)cc1-n1cc(NC(=O)Nc2c(F)cccc2Cl)cn1
target	mode	relative to	remaining activity [%]
Tyrosine-protein kinase JAK1 (JAK1, Homo sapiens, UniProt P23458)		untreated control	71.5
Phosphorylase b kinase gamma catalytic chain, skeletal muscle/heart isoform (PHKG1, Homo sapiens, UniProt Q16816)		untreated control	83.2
Serine/threonine-protein kinase SBK1 (SBK1, Homo sapiens, UniProt Q52WX2)		untreated control	80.6
Mitogen-activated protein kinase kinase kinase 19 (MAP3K19, Homo sapiens, UniProt Q56UN5)	inhibitor		95.5
Casein kinase I isoform alpha-like (CSNK1A1L, Homo sapiens, UniProt Q8N752)	inhibitor		105
Ribosomal protein S6 kinase alpha-6 (RPS6KA6, Homo sapiens, UniProt Q9UK32)		untreated control	115
Microtubule-associated serine/threonine-protein kinase 3 (MAST3, Homo sapiens, UniProt O60307)		untreated control	95.2
Serine/threonine-protein kinase Chk1 (CHEK1, Homo sapiens, UniProt O14757)		untreated control	113
TRAF2 and NCK-interacting protein kinase (TNIK, Homo sapiens, UniProt Q9UKE5)		untreated control	93.9
Testis-specific serine/threonine-protein kinase 3 (TSSK3, Homo sapiens, UniProt Q96PN8)		untreated control	99.1
Mitogen-activated protein kinase kinase kinase kinase 1 (MAP4K1, Homo sapiens, UniProt Q92918)		untreated control	95.4

Block 2 — observed: enzyme activity; mode: inhibitor; tested at: 0.5 µM; relative to: control
Target: Serine/threonine-protein kinase D2 (PRKD2, Homo sapiens, UniProt Q9BZL6)
Target sequence (Q9BZL6 1-878): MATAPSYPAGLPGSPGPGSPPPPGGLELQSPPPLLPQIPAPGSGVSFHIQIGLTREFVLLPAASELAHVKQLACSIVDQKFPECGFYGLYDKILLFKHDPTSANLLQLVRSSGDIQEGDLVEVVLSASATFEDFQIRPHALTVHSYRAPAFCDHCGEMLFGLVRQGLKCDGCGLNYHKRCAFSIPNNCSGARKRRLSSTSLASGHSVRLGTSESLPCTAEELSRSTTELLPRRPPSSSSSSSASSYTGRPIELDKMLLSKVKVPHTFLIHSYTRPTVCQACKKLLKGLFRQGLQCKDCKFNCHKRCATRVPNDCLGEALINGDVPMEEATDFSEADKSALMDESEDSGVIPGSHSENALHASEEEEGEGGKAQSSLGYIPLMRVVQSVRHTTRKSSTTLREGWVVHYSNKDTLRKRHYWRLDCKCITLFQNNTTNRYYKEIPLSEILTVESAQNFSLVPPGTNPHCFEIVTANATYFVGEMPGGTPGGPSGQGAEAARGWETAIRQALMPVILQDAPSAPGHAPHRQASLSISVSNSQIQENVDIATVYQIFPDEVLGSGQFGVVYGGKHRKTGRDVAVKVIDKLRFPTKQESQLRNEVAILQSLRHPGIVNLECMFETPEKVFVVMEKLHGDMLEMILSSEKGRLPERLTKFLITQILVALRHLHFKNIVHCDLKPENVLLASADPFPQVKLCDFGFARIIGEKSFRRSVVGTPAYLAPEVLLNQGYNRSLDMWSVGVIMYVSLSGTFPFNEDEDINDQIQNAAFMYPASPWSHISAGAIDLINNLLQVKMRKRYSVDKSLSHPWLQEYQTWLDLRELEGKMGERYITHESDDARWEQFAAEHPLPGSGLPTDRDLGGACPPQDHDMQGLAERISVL
SMILES	remaining activity [%]
CCCNC(=O)Nc1ccc(Oc2ncnc3cc(OC)c(OC)cc23)cc1Cl	94.3
O=C(c1cc2cc(O)ccc2[nH]1)c1cc2cc(O)ccc2[nH]1	71.7
O=C1Cc2c([nH]c3ccc(Br)cc23)-c2ccccc2N1	100
O=c1cc(N2CCOCC2)oc2c(-c3ccccc3)cccc12	93.8
O=C1Nc2ccccc2/C1=C\c1c(Cl)[nH]c2ccccc12	90.2
CN1CCN(c2ccc3nc(-c4c(N)c5c(F)cccc5[nH]c4=O)[nH]c3c2)CC1	66.2
O=C1Nc2ccc(Br)cc2/C1=C/c1cc2c([nH]1)CCCC2	95.8
COc1ccc2c(c1)c(C1=C(c3c[nH]c4ccccc34)C(=O)NC1=O)cn2CCCN(C)C	92.3
CN(C)S(=O)(=O)c1ccc2c(c1)/C(=C/c1cc3c([nH]1)CCCC3)C(=O)N2	102
Oc1cccc(-c2nc(N3CCOCC3)c3oc4ncccc4c3n2)c1	93.8
CCCCc1c(-c2ccc(OC)cc2)[nH]c2nccnc12	101
Cc1ccc(S(=O)(=O)/C=C/C#N)cc1	98.1
c1ccc(-c2n[nH]c3c2oc2ccccc23)cc1	86.9
O=C1NC(=O)c2c1c1c3ccccc3[nH]c1c1[nH]c3cc(Br)ccc3c21	45.9
N#Cc1cnc2cnc(NCc3cccnc3)cc2c1Nc1ccc(F)c(Cl)c1	99.7
O=Nc1c(-c2c(O)[nH]c3cc(Br)ccc23)[nH]c2ccccc12	94.1
COc1cccc(-c2cc(=O)c3ccccc3o2)c1N	103
O=C1NC(=O)c2c1c1c3ccccc3[nH]c1n1cncc21	69.4
c1ccc2c(-c3ccncc3)c[nH]c2c1	95.7

Block 3 — organism: Sarcocystis neurona; observed: parasite growth; tested at: 10 µM; time: 96 h; setting: first screen; relative to: untreated
Structure (SMILES)	log2 fold change
CCOC(=O)CCC(=O)O[C@H]1[C@H](O[C@@H]2[C@@H](C)[C@H](O[C@H]3C[C@@](C)(OC)[C@@H](O)[C@H](C)O3)[C@@H](C)C(=O)O[C@H](CC)[C@@](C)(O)[C@H](O)[C@@H](C)C(=O)[C@H](C)C[C@@]2(C)O)O[C@H](C)C[C@@H]1N(C)C	-0.3
CN(C)CCN(Cc1ccccc1)c1ccccn1	0.21
CN(C)CCOC(c1ccccc1)c1ccccc1	-0.17
CN1CCN(C2=Nc3cc(Cl)ccc3Nc3ccccc32)CC1	0.15
CN(CCOc1ccc(CC2SC(=O)NC2=O)cc1)c1ccccn1 (stereo not drawn)	-0.21
O=C1CCC(N2C(=O)c3ccccc3C2=O)C(=O)N1 (stereo not drawn)	0.22
CN(C)CCOc1ccc(/C(=C(/CCCl)c2ccccc2)c2ccccc2)cc1	-0.0157
O=C1CN2Cc3c(ccc(Cl)c3Cl)N=C2N1	0.31
NCc1ccc(S(N)(=O)=O)cc1	0.33
[H]/N=C(/NC)NCCC[C@H](N)C(=O)O	0.0343
CC(C)(C)NC[C@H](O)COc1nsnc1N1CCOCC1	0.28
C[C@H]1O[C@@H](O[C@H]2[C@@H](O)C[C@H](O[C@H]3[C@@H](O)C[C@H](O[C@H]4CC[C@@]5(C)[C@H](CC[C@@H]6[C@@H]5C[C@@H](O)[C@]5(C)[C@@H](C7=CC(=O)OC7)CC[C@]65O)C4)O[C@@H]3C)O[C@@H]2C)C[C@H](O)[C@@H]1O	-1.43
C[C@@H]1CN(CCCn2c3ccccc3c3ccccc32)C[C@H](C)N1	-0.38
C=C(CC)C(=O)c1ccc(OCC(=O)O)c(Cl)c1Cl	0.22
Cc1onc(-c2c(Cl)cccc2Cl)c1C(=O)N[C@@H]1C(=O)N2[C@@H]1SC(C)(C)[C@@H]2C(=O)O	0.27
CCCSc1ccc2nc(NC(=O)OC)[nH]c2c1	1.24
CCN(CC)CC(=O)Nc1c(C)cccc1C	0.21
CC(=O)OCC[N+](C)(C)C	0.19

Block 4 — observed: cell-free assay; technique: competition with immobilised ligand; tested at: 1 µM
SMILES: CO[C@@H](C)c1c(Nc2ccc([C@@H](N(C)C(=O)C3CCS(=O)(=O)CC3)C(F)(F)F)cc2)cnc2cc(Cl)nn12
target	remaining binding
5'-AMP-activated protein kinase catalytic subunit alpha-2 (PRKAA2, Homo sapiens, UniProt P54646)	78%
Phosphatidylinositol 4,5-bisphosphate 3-kinase catalytic subunit beta isoform (PIK3CB, Homo sapiens, UniProt P42338)	72%
Ephrin type-A receptor 4 (EPHA4, Homo sapiens, UniProt P54764)	100%
Calcium/calmodulin-dependent protein kinase type II subunit gamma (CAMK2G, Homo sapiens, UniProt Q13555)	84%
Myosin light chain kinase, smooth muscle (MYLK, Homo sapiens, UniProt Q15746)	98%
Calcium/calmodulin-dependent protein kinase type IV (CAMK4, Homo sapiens, UniProt Q16566)	100%
BDNF/NT-3 growth factors receptor (NTRK2, Homo sapiens, UniProt Q16620)	100%
NT-3 growth factor receptor (NTRK3, Homo sapiens, UniProt Q16288)	100%
Phosphatidylinositol 4-phosphate 3-kinase C2 domain-containing subunit beta (PIK3C2B, Homo sapiens, UniProt O00750)	89%
Serine/threonine-protein kinase WNK3 (WNK3, Homo sapiens, UniProt Q9BYP7)	84%
Casein kinase I isoform gamma-2 (CSNK1G2, Homo sapiens, UniProt P78368)	84%
Calcium/calmodulin-dependent protein kinase type II subunit delta (CAMK2D, Homo sapiens, UniProt Q13557)	100%
SRSF protein kinase 3 (SRPK3, Homo sapiens, UniProt Q9UPE1)	100%
Serine/threonine-protein kinase Sgk3 (SGK3, Homo sapiens, UniProt Q96BR1)	100%
Serine/threonine-protein kinase B-raf (BRAF, Homo sapiens, UniProt P15056)	76%

A few entries again (block 2):
SMILES	remaining activity [%]
CN(C)S(=O)(=O)c1ccc2c(c1)/C(=C/c1cc3c([nH]1)CCCC3)C(=O)N2	102
Oc1cccc(-c2nc(N3CCOCC3)c3oc4ncccc4c3n2)c1	93.8
CCCCc1c(-c2ccc(OC)cc2)[nH]c2nccnc12	101
Cc1ccc(S(=O)(=O)/C=C/C#N)cc1	98.1
c1ccc(-c2n[nH]c3c2oc2ccccc23)cc1	86.9
O=C1NC(=O)c2c1c1c3ccccc3[nH]c1c1[nH]c3cc(Br)ccc3c21	45.9
